Assay results pooled from the literature.
Each numbered part is a random draw from the data of one study; scales do not carry over between parts. Changes are numbered by the printed parent chain.

Study 1
Target: ABI1, truncated, D143A, DHFR fusion (Arabidopsis thaliana)
Method: DHFR PCA, deep sequencing
Sample: yeast
Setting: methotrexate growth selection, single substitutions
Added: (+)-ABA 200 µM
Relative to: wild-type fitted maximum
Reading: higher = stronger binding
Starting sequence: PYL1, truncated, DHFR fusion (Arabidopsis thaliana); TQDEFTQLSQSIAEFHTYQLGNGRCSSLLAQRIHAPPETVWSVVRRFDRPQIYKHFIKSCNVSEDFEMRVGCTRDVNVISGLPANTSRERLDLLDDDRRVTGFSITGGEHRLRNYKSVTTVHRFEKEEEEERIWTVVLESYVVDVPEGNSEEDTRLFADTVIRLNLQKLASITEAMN
`A30K`: “relative binding score” 105%.
Under “relative binding score”, `N114R` is recorded as 81.1%.
For `E128G`, “relative binding score” read 123%.
`S9V`: “relative binding score” 85%.
`T160D`: “relative binding score” -12.1%.
`L169F` — result for “relative binding score”: -1.49%.
Under “relative binding score”, `W134Y` is recorded as 104%.
For `G71R`, “relative binding score” read 41.1%.
For `Y115S`, “relative binding score” read -7%.
Under “relative binding score”, `L138M` is recorded as 84.4%.
For `D144H`, “relative binding score” read 57.4%.
Under “relative binding score”, `C60Y` is recorded as 25.1%.
For `S63F`, “relative binding score” read 84.3%.
For `H34D`, “relative binding score” read 103%.

Study 2
Target: Interferon regulatory factor 5, full length, phosphomimetic (IRF5, Homo sapiens, UniProt Q13568-2, residues 1-514, K96S/S451D/S453D/S456D/S462D)
Method: protein-binding microarray
Molecule type: double-stranded DNA, one strand shown
Sample: in vitro
Concentration: 250 nM
Setting: 60-bp whole probe
Added: salmon DNA 0.4 mg/ml
Relative to: random background probes
Reading: higher = stronger binding
Shared flanks, not repeated: GCCTAGCAC … GTCTTGATTCGCTTGACGCTGCTG
`GACGAACTGGGGTTTCGTGACGTGCTA` gave a log fluorescence of 0.263 z-score.
With `GATGGTCTCCTTCTCCTGACGTGCTAG` the log fluorescence was -0.235 z-score.
With `TATTTTATATGCTATGTACTGGTGCTA` the log fluorescence was 0.613 z-score.
For `TCAACTTTCCAAAGCGTACTGTGCTAG`, the log fluorescence was 0.331 z-score.
`GACGGTTTCGGTTCTGGGACGTGCTAG` gave a log fluorescence of 9.48 z-score.
With `TTAGACCTGGGGTTTCGATTAGTGCTA` the log fluorescence was 5.42 z-score.
`TTAGCTATCGACACTGGGTTAGTGCTA` has a log fluorescence of 2.5 z-score.
The log fluorescence of `TTAGGTTCCCTTTTCCCTTAGTGCTAG` is reported as 0.395 z-score.
With `TCATTTCTATTTTCTGAACTGTGCTAG` the log fluorescence was 2.75 z-score.
`TTGGGTATCCTACTGCTTTAGTGCTAG` has a log fluorescence of -0.0467 z-score.
`TCAATTATTGTTTCCTTACTGTGCTAG` has a log fluorescence of 1.4 z-score.
With `GACGATCTCAGGCTCGAGACGTGCTAG` the log fluorescence was -0.334 z-score.
`GACGATATCAGTTTCCAGACGTGCTAG` gave a log fluorescence of 1.7 z-score.
For `GAGCAGAGGCTGATGTATGTGTGCTAG`, the log fluorescence was -0.835 z-score.
The log fluorescence of `TGAGGACTGGGTCTCGGTTAGTGCTAG` is reported as -0.304 z-score.
`TTAGGTATCCTCATCCTTTAGTGCTAG` gave a log fluorescence of 0.0537 z-score.
`GACGGTCTGGGGTTTCGGGACGTGCTA` has a log fluorescence of 0.895 z-score.
For `TCATTTCTTTTATTAGTACTGTGCTAG`, the log fluorescence was 1.63 z-score.
With `TTAGGTTGCCTTTCCCTTTAGTGCTAG` the log fluorescence was 0.261 z-score.
The log fluorescence of `GTGTGTGTCTGATTATTTACGTGCTAG` is reported as 0.127 z-score.
`GACGATTTCCTTTCCCTGACGTGCTAG` gave a log fluorescence of 0.845 z-score.
`TCATTTCCAATTCTCTTACTGTGCTAG` has a log fluorescence of 1.24 z-score.
The log fluorescence of `GACGAACTGGGGACTGAAGACGTGCTA` is reported as -0.266 z-score.
`CCATTTTGGTTTTCTCTATTGGTGCTA` has a log fluorescence of 1.79 z-score.

Study 3
Target: Histone acetyltransferase KAT6A, winged helix 1, GST fusion (KAT6A, Homo sapiens, UniProt Q92794, residues 1-85)
Method: protein binding microarray
Molecule type: double-stranded DNA, one strand shown
Sample: in vitro
Concentration: not given
Setting: 8-mer, flanks averaged, mean of 2 arrays, mostly near background
Relative to: not given
Reading: higher = stronger binding
Residues (chain): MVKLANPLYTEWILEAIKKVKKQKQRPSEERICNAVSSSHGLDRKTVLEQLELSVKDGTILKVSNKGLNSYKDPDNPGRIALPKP
The E-score of `AACAAAAA` is reported as -0.158.
With `AATTAAAC` the E-score was -0.211.
`CTTTGGGA` gave an E-score of -0.203.
For `ACTGACTA`, the E-score was -0.316.
The E-score of `CGCCCCCC` is reported as 0.18.
For `GCCCATAC`, the E-score was -0.056.
`CAGATCCC` gave an E-score of 0.0357.
The E-score of `ACCCGCTA` is reported as 0.235.
For `CAGTGAGA`, the E-score was -0.394.
For `AACGATAT`, the E-score was -0.0844.
The E-score of `CACCGCAA` is reported as 0.0735.
For `AAGAGAAC`, the E-score was -0.0942.
The E-score of `GGCCGGAA` is reported as 0.193.
For `CGACGCCC`, the E-score was 0.328.
The E-score of `GCCTAGCC` is reported as 0.218.
`ACTATACC` gave an E-score of -0.0155.
The E-score of `CTGTTTAA` is reported as 0.0452.
The E-score of `GATAGTCC` is reported as -0.158.
For `ATTAAGAA`, the E-score was -0.0682.
With `CAAGCACA` the E-score was -0.2.
`CGGAACTC` has an E-score of 0.0199.
With `ATGATGCC` the E-score was 0.0967.
The E-score of `CGGTTAAG` is reported as 0.107.
`GTAATTAA` gave an E-score of 0.0692.
With `ATGATAAG` the E-score was -0.213.

Study 4
Target: Centromere-binding protein 1, full length, His-tagged (CBF1, Saccharomyces cerevisiae, UniProt P17106, residues 1-351)
Chain of UniProt P17106 (whole entry, looked up): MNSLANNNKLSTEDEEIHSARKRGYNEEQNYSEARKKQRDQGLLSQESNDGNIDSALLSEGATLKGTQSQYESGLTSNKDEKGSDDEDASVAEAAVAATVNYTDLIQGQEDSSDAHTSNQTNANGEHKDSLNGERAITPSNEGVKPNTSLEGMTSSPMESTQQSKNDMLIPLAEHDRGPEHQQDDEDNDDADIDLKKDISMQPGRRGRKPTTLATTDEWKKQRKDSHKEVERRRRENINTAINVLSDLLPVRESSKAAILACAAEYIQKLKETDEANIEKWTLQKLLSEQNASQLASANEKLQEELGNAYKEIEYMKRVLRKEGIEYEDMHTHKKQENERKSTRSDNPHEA
Method: competition protein-binding microarray
Molecule type: double-stranded DNA, one strand shown
Sample: in vitro
Concentration: 2 µM
Setting: whole 60-bp probe, lowest competitor level
Added: Pho4 competitor, 0.05 µM
Reading: higher = stronger binding
With `GCTCCCTGGTTCCGTCACGCAAAACCGAAAGGCTCAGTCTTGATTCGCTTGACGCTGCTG` the fluorescence intensity was 65 a.u.
`TTTTATCTTTTTGGTTCTGTGATGAAGCTACCCGCGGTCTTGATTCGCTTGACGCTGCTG` has a fluorescence intensity of 80.3 a.u.
`AAGGCAGAGGTTGGAAACGTGTGGAGACTCCAAATGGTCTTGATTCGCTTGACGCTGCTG` gave a fluorescence intensity of 86 a.u.
With `CGGGGTTAAGTTTGTCGTGTGGGTGGCTTGCAGCAGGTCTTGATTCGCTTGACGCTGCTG` the fluorescence intensity was 77 a.u.
For `CGGGGTTAAGTTTGTCTGGTGGGTGGCTTGCAGCAGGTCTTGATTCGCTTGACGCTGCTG`, the fluorescence intensity was 77.4 a.u.
The fluorescence intensity of `CAATGGCTCAGTAACCTCGTGATGGAAAAAGGGCAAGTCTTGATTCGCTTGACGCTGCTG` is reported as 525 a.u.
For `CTTTCCCGATCTTGTCACACCACTTTAGCACATTTGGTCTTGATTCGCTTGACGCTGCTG`, the fluorescence intensity was 123 a.u.
`ATTGAGAATAGTCATCAGGTGTAATGGAAGCTAATTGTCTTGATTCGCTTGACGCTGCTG` has a fluorescence intensity of 154 a.u.
With `GTCTTGTCTCATTGTACTGTGGGTGTCCCCACTTCAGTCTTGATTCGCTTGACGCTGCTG` the fluorescence intensity was 70.7 a.u.
`GATGCGTTGCATACCCACGTGGAACAAATGGTCAAGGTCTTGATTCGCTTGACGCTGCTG` gave a fluorescence intensity of 845 a.u.
With `ATATGTATTTCATTTCACGTGATGGGCTGGGATGTTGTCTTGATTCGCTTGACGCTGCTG` the fluorescence intensity was 2260 a.u.
`CGCTCCTTAGTAAAGCACGTGCCGATGATATCAATTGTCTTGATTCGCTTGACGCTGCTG` has a fluorescence intensity of 3640 a.u.
`CGGGGTTAAGTTTGACTGGTGGGTGGCTTGCAGCAGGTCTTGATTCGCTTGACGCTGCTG` gave a fluorescence intensity of 76.7 a.u.
`CGGGGTTAAGTTTGGCACGTGTTTTGCTTGCAGCAGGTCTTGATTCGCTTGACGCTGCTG` gave a fluorescence intensity of 1350 a.u.
With `TCCTCAGGGACCTCTCACGTGCCGAGTATCAGCCAGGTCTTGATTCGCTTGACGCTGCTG` the fluorescence intensity was 1500 a.u.
With `AAAGCGGTAATTTGGCTAGTGGGTGCAGATATCTATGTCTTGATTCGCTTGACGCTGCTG` the fluorescence intensity was 80.7 a.u.
The fluorescence intensity of `CTAAATCTGCGTTAGCTCGTGGTGAGTATTTGCGCGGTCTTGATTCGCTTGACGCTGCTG` is reported as 103 a.u.
For `TTACTCTTTAATAATCGGCAAGAAATAATTGAATTTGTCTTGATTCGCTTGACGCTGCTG`, the fluorescence intensity was 87.5 a.u.
The fluorescence intensity of `AGCAACGACATTCCACACGTGGTGCGGTTCAGCGCGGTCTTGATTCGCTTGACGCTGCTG` is reported as 683 a.u.
With `CATACCCAACCTTGTCACCTAACTTAAGATATTTGTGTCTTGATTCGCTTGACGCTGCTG` the fluorescence intensity was 73.8 a.u.
`CGTCCTAGTGATTTTCACGTGTGTTCCATGAGGAAGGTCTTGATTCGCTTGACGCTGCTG` has a fluorescence intensity of 570 a.u.
For `CATACCCAACCTTGTCGAGTGGGTGAAGATATTTGTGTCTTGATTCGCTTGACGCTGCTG`, the fluorescence intensity was 63.3 a.u.
`GTTTCTGATGACCATCACGTGAAGAATTTGATGTCCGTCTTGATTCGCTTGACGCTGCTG` gave a fluorescence intensity of 2750 a.u.
For `CGTCCTAGTGATTGGAGTGTGGGTGCCATGAGGAAGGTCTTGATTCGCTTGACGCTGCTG`, the fluorescence intensity was 83.4 a.u.

Some of these lines once more (study 4):
`TTTTATCTTTTTGGTTCTGTGATGAAGCTACCCGCGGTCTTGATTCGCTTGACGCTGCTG` has a fluorescence intensity of 80.3 a.u.
With `TCCTCAGGGACCTCTCACGTGCCGAGTATCAGCCAGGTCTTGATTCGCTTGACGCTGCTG` the fluorescence intensity was 1500 a.u.
With `GCTCCCTGGTTCCGTCACGCAAAACCGAAAGGCTCAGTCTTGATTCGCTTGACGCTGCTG` the fluorescence intensity was 65 a.u.
`CGGGGTTAAGTTTGGCACGTGTTTTGCTTGCAGCAGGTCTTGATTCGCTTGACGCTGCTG` gave a fluorescence intensity of 1350 a.u.
For `TTACTCTTTAATAATCGGCAAGAAATAATTGAATTTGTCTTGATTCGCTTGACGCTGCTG`, the fluorescence intensity was 87.5 a.u.
With `ATATGTATTTCATTTCACGTGATGGGCTGGGATGTTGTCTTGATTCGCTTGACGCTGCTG` the fluorescence intensity was 2260 a.u.
The fluorescence intensity of `AGCAACGACATTCCACACGTGGTGCGGTTCAGCGCGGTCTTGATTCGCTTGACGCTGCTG` is reported as 683 a.u.
With `CATACCCAACCTTGTCACCTAACTTAAGATATTTGTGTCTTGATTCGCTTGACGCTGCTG` the fluorescence intensity was 73.8 a.u.
`GTTTCTGATGACCATCACGTGAAGAATTTGATGTCCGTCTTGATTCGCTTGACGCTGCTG` gave a fluorescence intensity of 2750 a.u.
With `CGGGGTTAAGTTTGTCGTGTGGGTGGCTTGCAGCAGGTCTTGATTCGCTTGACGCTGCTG` the fluorescence intensity was 77 a.u.
